Measurements collected from several papers.
Every numbered part comes from another study and shows a few of its results, in no order.

Block 1 — method: RNA Bind-n-Seq; molecule type: RNA; matrix: in vitro; concentration: not given; baseline: input RNA pool; direction: higher = stronger binding
Target: RING finger protein unkempt homolog, zinc fingers 1-6, GST-SBP tag (UNK, Homo sapiens, UniProt Q9C0B0, residues 30-357)
UniProt Q9C0B0, sequence (30-357, looked up): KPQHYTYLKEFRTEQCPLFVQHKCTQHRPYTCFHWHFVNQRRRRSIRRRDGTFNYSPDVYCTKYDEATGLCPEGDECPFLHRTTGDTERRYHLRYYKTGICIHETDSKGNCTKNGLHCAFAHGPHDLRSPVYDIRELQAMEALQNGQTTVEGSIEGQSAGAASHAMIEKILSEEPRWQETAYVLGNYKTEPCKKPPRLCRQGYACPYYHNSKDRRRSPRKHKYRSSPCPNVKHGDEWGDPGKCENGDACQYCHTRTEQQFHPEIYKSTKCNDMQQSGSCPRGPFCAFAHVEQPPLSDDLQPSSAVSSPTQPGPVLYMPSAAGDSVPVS
Setting: RNA with constant flanks, human and mouse sites, ends assumed
Shared flanks, not repeated: GGGAGUUCUACAGUCCGACGAUC … CAACAGAGGAUUGAGCAUCA
| Oligonucleotide | bound/input enrichment [ratio] |
| --- | --- |
| AGAAACUGGACCAUCAACCGGCUUAAUGGUGAUUUUGCUCAGCUCAAUUUAAAGAUAAAAUUUUUGGAAGCUGGUAUCUAUGAAGUUCCCAUCAUUAUCACAGAUUCAGGGAAUCCCCCC | 0.514 |
| GAGCCAUUCUAAAAGUGACCAGCAGGAGGGAUCUAGUAGUGAAUAAUAUCUUAAUAGCAAUUUUAGGAGAAAAUGACUCUUUCGUCCAGAAGAGCUCUGCAGAACCAGGGCUCCCGUUUA | 5.22 |
| AGUAUCAAUUGUGUGAGCUUGGGUGCGAGUGCACGCGUGCGUGAGUACGGAGAGUAUAUAUAGAUCUCUAUCUCUUAGCAAAGGUGAAUGCCAGAUGUAAAUGGCGCCUCUGGGCAAAGG | 1 |
| CGUCUUACUCAACUGCCCCUUUCCUCUCCCUCAGAAUUUGUGUUUGCUGCCUCUAUCUUGUUUUUUGUUUUUUCUUCUGGGGGGGGUCUAGAACAGUGCCUGGCACAUAGUAGGCGCUCA | 1.28 |
| CAGUACUUUGUGAAGGUGGUGCCCACUGUGUACAUGAAGGUGGACGGAGAGGUACUGAGGACAAAUCAGUUCUCUGUGACCAGACAUGAGAAGGUUGCCAAUGGGCUGUUGGGCGACCAA | 0.138 |
| UUUCUAGUUUGAGCUUUCUUUUUGGCCGUCUUUAAAAAAAUUUUUUUUUUUAAUCUAUAAAAUAGACAAGAGCUAGUUCUACAAUGUCCAAGUCAUUCCAGCAGUCAUCUCUCAGUAGGG | 0.707 |
| GGAGGUCAGGUUCCUGACACAAACUACAUAUUUAUGGGUGAUUUUGUAGACAGAGGUUACUAUAGUUUGGAGACCUUCACUUAUCUUCUUGCACUAAAGGCUAAGUGGCCUGACCGUAUU | 0.423 |
| UUACAGUCAUUGAUGGACUCUAUUUUUUUAUUAUUACUUGGACCUUGGUCGUUUUUAUACUAGCAAAAUGUCUUGUUUUAAUUUGUGUUUUUUGGGGGGAGGGAGGGAGUGAACUUGCUG | 9.02 |
| GGAAGGCGCUGUUUGAAGCUUGUCGGUCUUUGAAGUCUGGAAGACGUCUGCAGAGGACCCUUUUGGCAGCACAACUGUUACUCUAGGGAGUUGGUGGAGAUAUUUUUUUUUCUUAAGAGA | 0.393 |
| GCCAUUAUACAUAUAAAGAAGCAUCAGGUGUCUGUGGAGGGGACAAAUCAAACAGAUGUGAAAGCAGUUGGGGGACCAGCAAAGCUGCUUGUGGUAUCUCUAGAGGAAGCCUGGCCUCUG | 0.182 |
| AAUCUAAAACUUGCAACGGAACUCCCAGAUGCUGAACUUAGAAGGACUUUAUGGUCUUUAGUAGCUUUUCCCAAGCUCAAACGGCAAGUUUUGUUGUAUGACCCUCAAGUCAACUCACCC | 0.202 |

Block 2 — method: RNA Bind-n-Seq; molecule type: RNA; matrix: in vitro; concentration: 365 nM; baseline: no-protein control; direction: higher = stronger binding
Target: RNA binding protein fox-1 homolog 2, RRM domain, GST-SBP tag (RBFOX2, Homo sapiens, UniProt O43251-10, residues 100-194)
Setting: natural RNA segment, single round, ends assumed
Shared flanks, not repeated: GGGAGUUCUACAGUCCGACGAUC … UGGAAUUCUCGGGUGCCAA
Residues (chain): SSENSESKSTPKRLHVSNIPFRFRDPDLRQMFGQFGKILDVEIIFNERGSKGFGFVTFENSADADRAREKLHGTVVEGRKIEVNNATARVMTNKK
| Oligonucleotide | RBNS enrichment (R) |
| --- | --- |
| AGCUGCUGCAGACAAAAGAUCACAUUUCUGGGAAGAUGAGAACUUGUUUCCAGACCAGCAUCCAGUGGCCAUCAGGUCUUGUGGCCCAAAGGCUAUGCUUGCCUCCGGCU | 0.524 |
| AUCUUUGCUUGCAGCCCUCCGUCCUGCUGAAAACCCCCAUAAGCCAGUGAACACAGAGCAGCUAGAGGCUCCUCCUCUGCUGGCUUAGGGUCAGAAGUACCUCACAGUGG | 1.81 |
| AGAGACGGGGUCUCGCAACAUUGCCCAGACUUCCUUUGUGUUAGUUAAUAAAGCUUUCUCAACUGCCUCAGCCUUGUGUGAGUUGAGGGGAGGUGUCACAUCCAGCUGGA | 0.385 |
| CUCAUUCCUUUCCUCUGGCCCAGUGAAUUUGGUCUCUCCCAGCUCUGGGGGACUCCUUCCUUGAACCCUAAUAAGACCCCACUGGAGUCUCUCUCUCUCCAUCCCUCUCC | 0.565 |
| UGCAGCCGGCACACCCAGUGGUGGAGGGCCGGCGCUGCCACUCACGGUGGGUGGCCGUGGGCCACCUUCCCUGCAAUGGGUGCACACGCGGCUCCCAUCCAGCCCUCUCA | 0.333 |
| UUCUAUCUCCUGGAGGUCCCAAGAUGAUUCAUAAAUACUGCCUGGUGCACAGUGCCCAAACAGCAAUAGAAAGGCUUACUUAUAACCAAACUCCAAGUGAUAGUGAGACC | 0.457 |
| GCGCUGUGCCAAAGCCAGGUCCGAGGCCAAAGUUCUCCCUGCCAUCCUUGGUGCCGUCCUGCCCCUUCCUCCUUCAUGCCUGGGCCUGCAGGCCCACCCCAGCCACCACU | 0.615 |
| UUGCUUUGUUUAUAAAUAGUUUAUGGGAAAUUUGCACUUAGUAUGUUUUGAAUAAUGACCACGCAUGGACACAGUUUCAUUAAUUUAAAUUGCACCACACAAGUAGCAGU | 33.4 |
| UUUUCAGAGUCAAACAUCAUUCUGCCUGUGUUGGGGGCCAGGUGUGUCACACAAGCAUCUCAAAGUCAAAAGCCAUCUGGGGCUGCUGCUUCUGUUUCUCAGGCUCUGGG | 0.629 |
| GGCUCAGUCCUGUGUGGUGCCCAUGAUCCUUCUGGUGGGGGAAGAGUUUAAGUUAUAGGGCAUUUGGCUCAAAUUUUAAAAGGCCUUUUGUUUACCUAUAUUUCUGGAGG | 0.773 |
| AGGCUAGUUUGGUGCCUGCUCUGGGUCAUACACCUGAUCUGGAAGAACAAAGCUUAAGCUGCCUUUGUUAUUUUUUGAAAUUGAAAUAAAGUUUACUAAUUUUGACCAAA | 0.49 |
| UUCACGGGAAGGGUUGGUGUGCUGGCUUUAGACGGGGAGAAACAUCUGGAAGGAUGCUCGAGAGAACAAAUGGAGGUGGUGAAAAUCAAGCUUUGGAUUGUGCAUUCCUA | 0.567 |

Block 3 — method: competition protein-binding microarray; molecule type: double-stranded DNA, one strand shown; matrix: in vitro; concentration: 2 µM; with: Pho4 competitor, 0.05 µM; direction: higher = stronger binding; shared flanks, not repeated: … GTCTTGATTCGCTTGACGCTGCTG
Target: Centromere-binding protein 1, full length, His-tagged (CBF1, Saccharomyces cerevisiae, UniProt P17106, residues 1-351)
UniProt P17106, sequence (whole entry, looked up): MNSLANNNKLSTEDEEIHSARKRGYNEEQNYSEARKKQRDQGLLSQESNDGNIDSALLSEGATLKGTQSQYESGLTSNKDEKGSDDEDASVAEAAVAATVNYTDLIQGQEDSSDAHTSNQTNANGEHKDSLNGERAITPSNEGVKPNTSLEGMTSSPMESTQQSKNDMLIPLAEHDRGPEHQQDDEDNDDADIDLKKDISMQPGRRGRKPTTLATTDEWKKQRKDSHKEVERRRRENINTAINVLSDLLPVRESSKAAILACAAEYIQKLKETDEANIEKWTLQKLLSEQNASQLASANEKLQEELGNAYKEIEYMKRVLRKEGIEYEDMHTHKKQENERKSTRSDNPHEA
Setting: whole 60-bp probe, lowest competitor level
| Oligonucleotide | fluorescence intensity [a.u.] |
| --- | --- |
| CTTTCCCGATCTTGGCTTGTGGGTGTAGCACATTTG | 79.1 |
| GAGCAGTTACGCAACTCCGTGATGGCGCGCCAAGGG | 62.7 |
| GCTCAGGAGCCCTGACTCGTGTTGGCTCGAGTAAAC | 68.5 |
| AAATTACTAAGTTGAATCGTGGGTGACGCCGTATGA | 58.2 |
| AAAACAACATAAAAATCCGTGATGGTTTAATGGTCA | 107 |
| GAATTGGTAGAACTGGTCGTGCCAGTAACACCGGTC | 57.4 |
| CTTCTTGTAATGTTGCGCGTGATGGGAATCGATGTC | 307 |
| AAATTACTAAGTTTTCACGTGGCCTACCCCGTATGA | 1070 |
| TCCCCATGAACTCAGCATGTGCTACTCCAGTTAATG | 130 |
| GTCTTAACTTCCTGGCACGATTCTGCTTATATTTAT | 79.9 |
| TGACTTGAATTCCAACACGTGGATTATTTCCTCATT | 1270 |
| CGTCCTAGCGATTGAGACGTGGGTGCCATGAGGAAG | 72 |
| CCGGTCCCCCGATCCCATGCGCCAGGCGCGCCGGCA | 66.8 |
| CAACTAAAATGTCCAGACATGATGTTAAGCGGAAGG | 71.4 |
| CAGTTCTCGACCCATCACGTGTGTTCTCGTTTAGCG | 2440 |
| CCCGTCCATTGAGTGCCCGTGCCGAATCAAGCTAAA | 87.9 |
| TCTCACCCATTCCGTCACGCTTTGGTTGCCGGTATT | 117 |
| CGGGGTTAAGTTTTTCACGTGACGTGCGATCAGCAG | 5570 |
| AGATGAAGCTCTCACCACGCACCATTAAATGTAAAC | 70.6 |
| CGTCCTAGTGATTGCCACGTGGGTGCCATGAGGAAG | 1040 |
| GGCAATATCAGTACCCACGTAACCGTGTGTTTCAGC | 69.1 |
| GAGACAGGCACTCACCACGTGAGGAAGAATTAGAGC | 1630 |
| AAGCTAAAGCTCCGTCACGTGTAGGTGGATACTGTT | 2730 |
| CGTCCTAGTGATTTTCACGTGGTATCCATGAGGAAG | 1020 |
| TGAACACCCATCCATCACGTGTAATTGGACATCCGG | 2090 |

Block 4 — method: protein binding microarray; molecule type: double-stranded DNA, one strand shown; matrix: in vitro; concentration: not given; baseline: not given; direction: higher = stronger binding
Target: Histone acetyltransferase KAT6A, winged helix 2, GST fusion (KAT6A, Homo sapiens, UniProt Q92794, residues 85-181)
Setting: 8-mer, flanks averaged, mean of 2 arrays, mostly near background
Residues (chain): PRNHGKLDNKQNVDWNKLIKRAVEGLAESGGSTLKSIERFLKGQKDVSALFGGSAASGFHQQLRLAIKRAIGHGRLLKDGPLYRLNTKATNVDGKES
| Oligonucleotide | E-score |
| --- | --- |
| ACATGGTG | -0.0537 |
| ATGTACGG | -0.183 |
| CCCAGTTA | -0.135 |
| AAGGGTCT | -0.296 |
| AGAGGGCG | 0.14 |
| TGACCCAA | 0.0237 |
| CATCGTAC | -0.0546 |
| CGTTCAAA | 0.0431 |
| CCGTCCCA | 0.0374 |
| GACCCTCC | 0.142 |
| ATAACGGC | 0.165 |
| GGACTCTA | -0.15 |
| CTCGCACC | 0.132 |
| ACAAAGGC | -0.101 |
| CCCCAACC | -0.00692 |
| CTCTGTTC | 0.00111 |
| CGTAACTA | -0.0861 |

A few entries again (block 3):
| Oligonucleotide | fluorescence intensity [a.u.] |
| --- | --- |
| CGTCCTAGTGATTGCCACGTGGGTGCCATGAGGAAG | 1040 |
| CAGTTCTCGACCCATCACGTGTGTTCTCGTTTAGCG | 2440 |
| CGTCCTAGTGATTTTCACGTGGTATCCATGAGGAAG | 1020 |
| AAGCTAAAGCTCCGTCACGTGTAGGTGGATACTGTT | 2730 |
